Experimental data from different studies.
Numbered parts are unrelated; each lists some results of a single study.
UniProt Q9NY57, sequence (whole entry, looked up): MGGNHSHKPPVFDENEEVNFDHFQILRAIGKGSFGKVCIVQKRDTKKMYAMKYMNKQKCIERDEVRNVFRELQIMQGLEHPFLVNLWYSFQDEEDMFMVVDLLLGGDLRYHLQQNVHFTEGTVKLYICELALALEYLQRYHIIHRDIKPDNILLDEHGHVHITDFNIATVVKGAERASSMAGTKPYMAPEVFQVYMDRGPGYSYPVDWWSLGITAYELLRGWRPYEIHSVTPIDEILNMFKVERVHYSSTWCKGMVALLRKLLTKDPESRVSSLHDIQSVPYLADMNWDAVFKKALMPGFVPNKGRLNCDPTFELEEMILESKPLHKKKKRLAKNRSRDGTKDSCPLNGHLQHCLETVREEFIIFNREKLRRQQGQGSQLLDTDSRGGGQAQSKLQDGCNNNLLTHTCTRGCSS
UniProt P42685, sequence (whole entry, looked up): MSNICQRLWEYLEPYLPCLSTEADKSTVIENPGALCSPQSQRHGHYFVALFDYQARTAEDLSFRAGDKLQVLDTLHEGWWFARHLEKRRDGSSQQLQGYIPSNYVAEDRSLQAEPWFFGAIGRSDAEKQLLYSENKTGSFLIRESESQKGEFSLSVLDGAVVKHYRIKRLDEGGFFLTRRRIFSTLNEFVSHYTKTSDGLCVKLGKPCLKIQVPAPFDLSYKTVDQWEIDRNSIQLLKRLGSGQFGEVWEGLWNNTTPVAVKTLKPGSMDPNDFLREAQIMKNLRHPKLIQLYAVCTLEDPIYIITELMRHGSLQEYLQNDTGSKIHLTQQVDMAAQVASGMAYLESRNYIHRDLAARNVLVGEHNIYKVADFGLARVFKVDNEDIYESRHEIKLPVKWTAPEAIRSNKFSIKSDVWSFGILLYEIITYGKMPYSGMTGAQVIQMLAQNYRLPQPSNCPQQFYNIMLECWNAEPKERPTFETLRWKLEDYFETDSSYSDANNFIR
UniProt Q96NX5, sequence (whole entry, looked up): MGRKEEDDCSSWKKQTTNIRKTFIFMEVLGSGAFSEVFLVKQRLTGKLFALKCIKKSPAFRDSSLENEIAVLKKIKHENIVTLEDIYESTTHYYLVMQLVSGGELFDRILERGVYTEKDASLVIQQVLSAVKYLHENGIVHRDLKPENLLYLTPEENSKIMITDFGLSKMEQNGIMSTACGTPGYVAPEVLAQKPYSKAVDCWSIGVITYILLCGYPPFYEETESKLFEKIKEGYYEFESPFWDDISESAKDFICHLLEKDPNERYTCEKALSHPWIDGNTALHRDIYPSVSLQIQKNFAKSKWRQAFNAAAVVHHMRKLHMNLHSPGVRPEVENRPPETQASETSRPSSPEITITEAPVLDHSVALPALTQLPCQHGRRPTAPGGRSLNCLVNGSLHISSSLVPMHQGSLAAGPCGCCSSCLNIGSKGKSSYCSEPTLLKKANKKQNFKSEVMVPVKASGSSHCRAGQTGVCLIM
UniProt P22607, sequence (whole entry, looked up): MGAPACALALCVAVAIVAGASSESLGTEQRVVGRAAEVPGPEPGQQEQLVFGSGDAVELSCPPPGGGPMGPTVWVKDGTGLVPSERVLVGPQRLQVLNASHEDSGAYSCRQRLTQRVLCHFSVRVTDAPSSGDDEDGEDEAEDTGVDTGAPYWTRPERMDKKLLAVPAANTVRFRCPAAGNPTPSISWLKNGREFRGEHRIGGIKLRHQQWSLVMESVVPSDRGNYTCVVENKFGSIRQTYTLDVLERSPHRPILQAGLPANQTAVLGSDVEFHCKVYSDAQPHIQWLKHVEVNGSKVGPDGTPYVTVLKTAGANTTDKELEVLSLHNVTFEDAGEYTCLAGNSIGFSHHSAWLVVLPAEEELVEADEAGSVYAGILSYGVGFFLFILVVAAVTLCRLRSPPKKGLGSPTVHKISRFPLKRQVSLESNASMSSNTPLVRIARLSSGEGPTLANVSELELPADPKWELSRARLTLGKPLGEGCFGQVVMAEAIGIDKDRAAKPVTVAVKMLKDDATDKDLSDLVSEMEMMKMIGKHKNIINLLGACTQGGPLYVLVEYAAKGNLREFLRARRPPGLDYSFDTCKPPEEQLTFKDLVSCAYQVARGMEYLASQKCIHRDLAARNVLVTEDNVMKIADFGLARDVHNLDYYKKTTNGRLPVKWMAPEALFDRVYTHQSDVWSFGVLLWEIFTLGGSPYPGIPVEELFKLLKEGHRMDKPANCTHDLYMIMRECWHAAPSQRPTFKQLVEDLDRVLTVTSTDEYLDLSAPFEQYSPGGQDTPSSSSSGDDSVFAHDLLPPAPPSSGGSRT
UniProt Q02156, sequence (whole entry, looked up): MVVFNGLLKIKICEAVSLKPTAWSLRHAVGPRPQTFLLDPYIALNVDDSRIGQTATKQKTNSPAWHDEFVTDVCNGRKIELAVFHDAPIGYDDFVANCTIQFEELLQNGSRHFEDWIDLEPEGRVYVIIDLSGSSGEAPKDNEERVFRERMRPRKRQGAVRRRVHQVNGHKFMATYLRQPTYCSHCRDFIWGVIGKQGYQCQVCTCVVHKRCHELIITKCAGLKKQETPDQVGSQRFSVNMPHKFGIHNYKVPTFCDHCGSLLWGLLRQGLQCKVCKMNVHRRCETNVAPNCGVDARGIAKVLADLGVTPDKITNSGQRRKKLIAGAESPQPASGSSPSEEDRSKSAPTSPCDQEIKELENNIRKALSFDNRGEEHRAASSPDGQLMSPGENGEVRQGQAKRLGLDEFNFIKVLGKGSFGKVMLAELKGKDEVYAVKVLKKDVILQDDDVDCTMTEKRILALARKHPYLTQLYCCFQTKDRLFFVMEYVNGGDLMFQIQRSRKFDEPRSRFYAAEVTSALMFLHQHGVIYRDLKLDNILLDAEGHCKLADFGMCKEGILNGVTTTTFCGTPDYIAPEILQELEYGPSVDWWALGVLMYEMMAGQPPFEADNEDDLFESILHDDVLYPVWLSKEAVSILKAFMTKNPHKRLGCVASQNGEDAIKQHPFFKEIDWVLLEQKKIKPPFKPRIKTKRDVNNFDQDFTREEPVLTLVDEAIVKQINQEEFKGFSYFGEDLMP
UniProt Q8IWQ3, sequence (whole entry, looked up): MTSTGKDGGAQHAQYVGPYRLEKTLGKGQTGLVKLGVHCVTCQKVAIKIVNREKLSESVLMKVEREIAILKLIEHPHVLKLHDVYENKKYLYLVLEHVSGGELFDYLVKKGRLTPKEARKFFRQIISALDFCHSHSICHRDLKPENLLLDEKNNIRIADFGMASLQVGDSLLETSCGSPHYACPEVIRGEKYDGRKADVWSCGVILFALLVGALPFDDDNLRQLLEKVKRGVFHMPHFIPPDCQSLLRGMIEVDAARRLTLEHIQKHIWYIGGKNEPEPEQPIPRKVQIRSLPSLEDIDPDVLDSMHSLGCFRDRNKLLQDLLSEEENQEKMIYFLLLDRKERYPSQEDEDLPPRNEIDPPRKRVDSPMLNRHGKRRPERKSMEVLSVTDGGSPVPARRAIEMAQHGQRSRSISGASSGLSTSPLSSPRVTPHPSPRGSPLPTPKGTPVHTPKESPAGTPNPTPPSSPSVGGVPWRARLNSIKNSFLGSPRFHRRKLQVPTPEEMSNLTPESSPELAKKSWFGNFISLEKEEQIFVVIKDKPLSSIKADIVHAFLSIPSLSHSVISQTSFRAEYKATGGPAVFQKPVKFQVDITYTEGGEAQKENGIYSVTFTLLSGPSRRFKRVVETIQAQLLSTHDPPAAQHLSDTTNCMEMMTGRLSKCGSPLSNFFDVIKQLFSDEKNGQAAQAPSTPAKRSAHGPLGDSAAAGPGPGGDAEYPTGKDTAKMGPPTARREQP

Sample 1
Target: Serine/threonine-protein kinase MARK1 (MARK1, Homo sapiens, UniProt Q9P0L2)
UniProt Q9P0L2, sequence (whole entry, looked up): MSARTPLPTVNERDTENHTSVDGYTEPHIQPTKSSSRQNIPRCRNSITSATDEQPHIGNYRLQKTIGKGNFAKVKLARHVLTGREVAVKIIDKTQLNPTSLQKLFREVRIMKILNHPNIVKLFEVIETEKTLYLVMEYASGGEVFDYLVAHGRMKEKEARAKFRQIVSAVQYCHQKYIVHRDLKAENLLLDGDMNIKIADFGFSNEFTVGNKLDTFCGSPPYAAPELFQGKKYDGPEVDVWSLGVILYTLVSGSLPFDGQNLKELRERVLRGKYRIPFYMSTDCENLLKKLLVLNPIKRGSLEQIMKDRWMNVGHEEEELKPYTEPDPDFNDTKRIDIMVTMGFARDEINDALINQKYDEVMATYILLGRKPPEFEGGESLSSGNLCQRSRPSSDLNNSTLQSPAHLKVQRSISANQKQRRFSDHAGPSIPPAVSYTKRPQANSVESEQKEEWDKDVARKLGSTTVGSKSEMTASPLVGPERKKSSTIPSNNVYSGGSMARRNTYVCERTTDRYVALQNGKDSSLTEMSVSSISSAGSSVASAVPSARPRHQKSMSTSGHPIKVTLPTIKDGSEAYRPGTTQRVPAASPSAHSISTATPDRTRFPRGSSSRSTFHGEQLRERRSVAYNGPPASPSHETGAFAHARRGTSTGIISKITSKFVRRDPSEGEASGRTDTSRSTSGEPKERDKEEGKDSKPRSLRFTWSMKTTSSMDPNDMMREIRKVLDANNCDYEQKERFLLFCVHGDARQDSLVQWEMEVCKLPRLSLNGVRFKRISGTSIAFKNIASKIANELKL
Effect on: enzyme activity
Action: inhibitor
Tested at: 0.5 µM
Relative to: control
`CCN(CC)CCNC(=O)c1c(C)[nH]c(/C=C2\C(=O)Nc3ccc(F)cc32)c1C` has a remaining activity of 40.9%.
`Cn1nc2c3c(cccc31)C(=O)c1ccccc1-2` gave a remaining activity of 95.7%.
`CN(C)C[C@H]1CCn2c(c(C3=C(c4cn(C)c5ccccc45)C(=O)NC3=O)c3ccccc32)C1` has a remaining activity of 92.8%.
`Cc1cc2ncc(-c3ccccc3)nc2cc1C` gave a remaining activity of 106%.
For `CCN(CC)CCNC(=O)c1c(C)[nH]c(/C=C2\C(=O)Nc3ccc(Cl)cc32)c1C`, the remaining activity was 18.1%.
For `N#C/C(=C\c1ccc(O)c(O)c1)C(=O)NCc1ccccc1`, the remaining activity was 93.8%.
For `COc1cc2ncnc(Nc3ccc(O)c(Br)c3)c2cc1OC`, the remaining activity was 94.8%.
`O=C1C(Cl)=C(N2C(=O)CCC2=O)C(=O)c2ccccc21` has a remaining activity of 99.3%.
With `O=C(Nc1cccc(Nc2nccc(Nc3cccc(C(F)(F)F)c3)n2)c1)C1CC1` the remaining activity was 104%.
`O=c1cc(-c2cccc3c2Sc2ccccc2S3)oc(N2CCOCC2)c1` has a remaining activity of 100%.
The remaining activity of `COc1cc2c(cc1OC)-c1[nH]nc(Nc3cccc(F)c3)c1C2` is reported as 96.1%.
`c1ccc(-c2cnc(Nc3ccc(OCCN4CCCC4)cc3)s2)cc1` gave a remaining activity of 90.1%.
With `O=C1c2ccccc2-c2n[nH]c3cccc1c23` the remaining activity was 60.1%.
With `N#Cc1c(NC(=O)c2cccc3ccccc23)sc2c1CCCC2` the remaining activity was 100%.
`CN([C@@H](Cc1ccc(OS(=O)(=O)c2cccc3cnccc23)cc1)C(=O)N1CCN(c2ccccc2)CC1)S(=O)(=O)c1cccc2cnccc12` gave a remaining activity of 96.7%.
The remaining activity of `Ic1cccc(CSc2nnc(-c3ccncc3)o2)c1` is reported as 111%.
`c1ccc(-c2[nH]ncc2-c2ccnc3ccccc23)nc1` has a remaining activity of 79.2%.
`CCN(CC)C(=O)c1ccc(Nc2nc(OCC3CCCCC3)c3[nH]cnc3n2)cc1` gave a remaining activity of 82.7%.
For `Cc1cn(-c2cc(NC(=O)c3ccc(C)c(Nc4nccc(-c5cccnc5)n4)c3)cc(C(F)(F)F)c2)cn1`, the remaining activity was 148%.
For `CCOc1nc(NC(=O)Cc2cc(OC)ccc2OC)cc(N)c1C#N`, the remaining activity was 99%.
For `O=C(NC(NC(=S)Nc1ccc(F)c([N+](=O)[O-])c1)C(Cl)(Cl)Cl)C(c1ccccc1)c1ccccc1` (stereo not shown), the remaining activity was 101%.
`Cc1nc2cc3nc(-c4cccs4)cnc3cc2n1C` has a remaining activity of 102%.
`C[C@@H]1CCN(C(=O)CC#N)C[C@@H]1N(C)c1ncnc2[nH]ccc12` gave a remaining activity of 119%.
`Nc1cccc(-c2cc3c(Oc4cccc(O)c4)ncnc3[nH]2)c1` gave a remaining activity of 83%.

Sample 2
Organism: Sarcocystis neurona
Effect on: parasite growth
Tested at: 10 µM
The inhibition of `COc1cccc2c1C(=O)c1c(O)c3c(c(O)c1C2=O)C[C@@](O)(C(C)=O)C[C@@H]3O[C@H]1C[C@H](N)[C@H](O)[C@H](C)O1` is reported as 96.6%.
`Cc1c(O)c(=O)ccn1C` has an inhibition of -21.8%.
With `Cc1nc2ccccn2c(=O)c1CCN1CCC(C(=O)c2ccc(F)cc2)CC1` the inhibition was 26.2%.
`O=C1CC[C@@H](C(=O)N2CSC[C@H]2C(=O)O)N1` has an inhibition of -20.5%.
`CNCCC(Oc1ccc(C(F)(F)F)cc1)c1ccccc1.Cl` (stereo not shown) gave an inhibition of -21.9%.
`NS(=O)(=O)c1cc(C(=O)O)c(NCc2ccco2)cc1Cl` gave an inhibition of -23.6%.
With `CC1(C)O[C@@H]2C[C@H]3[C@@H]4CCC5=CC(=O)C=C[C@]5(C)[C@@]4(F)[C@@H](O)C[C@]3(C)[C@]2(C(=O)CO)O1` the inhibition was -28.7%.
With `CC(=O)OCC(=O)[C@@]1(O)CC[C@H]2[C@@H]3CCC4=CC(=O)CC[C@]4(C)[C@H]3[C@@H](O)C[C@@]21C` the inhibition was 5.2%.
The inhibition of `Cc1cccc(CN2CCN(C(c3ccccc3)c3ccc(Cl)cc3)CC2)c1.Cl.Cl` (stereo not shown) is reported as -20%.

Sample 3
SMILES: CC(C)n1cnc(-c2ccc(F)cc2)c1-c1ncc(C(=O)Nc2ccc(N3CCN(C)CC3)cc2)[nH]1
Technique: phase 2a clinical trial
Host: patients with idiopathic pulmonary fibrosis
The “patients with treatment-emergent adverse events” was 0% (measured: benign prostatic hyperplasia; 60 mg once daily, Grade 4, maximum intensity).
measured: benign prostatic hyperplasia; 30 mg once daily, Grade 5, maximum intensity — “patients with treatment-emergent adverse events”: 0%.
It gave 0% for “patients with treatment-emergent adverse events” (measured: electrocardiogram T wave abnormal; 60 mg once daily, Grade 1).
For measured: electrocardiogram T wave abnormal; dose not given, Grade 5, all drug arms total: “patients with treatment-emergent adverse events” read 0%.
The “patients with treatment-emergent adverse events” was 0% (measured: gastro-oesophageal reflux disease; 60 mg once daily, Grade 1).
It gave 0% for “patients with treatment-emergent adverse events” (measured: electrocardiogram QT prolonged; 60 mg once daily, Grade 4).
measured: electrocardiogram QT prolonged; dose not given, Grade 2, all drug arms total — “patients with treatment-emergent adverse events”: 0%.
measured: left ventricular dysfunction; 60 mg once daily, Grade 3 — “patients with treatment-emergent adverse events”: 0%.
It gave 0% for “patients with treatment-emergent adverse events” (measured: hepatic function abnormal; 30 mg once daily, Grade 3).
It gave 0% for “patients with treatment-emergent adverse events” (measured: drug-induced liver injury; 30 mg once daily, Grade 5).
It gave 0% for “patients with treatment-emergent adverse events” (measured: electrocardiogram T wave abnormal; 30 mg once daily, Grade 2).

Sample 4
Structure (SMILES): CC1=C(C#N)C(c2ccc3c(c2)c(NC(=O)c2ccccc2C)nn3C)C(C#N)=C(C)N1
Effect on: cell-free assay
Technique: competition with immobilised ligand
Tested at: 1 µM
It gave 99% for remaining binding (CAMK1G (Homo sapiens, UniProt Q96NX5)).
It gave 98% for remaining binding (MUSK (Homo sapiens, UniProt O15146)).
FGFR3 (Homo sapiens, UniProt P22607) — remaining binding: 94%.
It gave 100% for remaining binding (FRK (Homo sapiens, UniProt P42685)).
Insulin receptor (INSR, Homo sapiens, UniProt P06213) — remaining binding: 100%.
STK32B (Homo sapiens, UniProt Q9NY57) — remaining binding: 100%.
PRKCE (Homo sapiens, UniProt Q02156) — remaining binding: 85%.
For BRSK2 (Homo sapiens, UniProt Q8IWQ3): remaining binding read 92%.

Repeated from above (sample 1):
With `N#Cc1c(NC(=O)c2cccc3ccccc23)sc2c1CCCC2` the remaining activity was 100%.
`CN([C@@H](Cc1ccc(OS(=O)(=O)c2cccc3cnccc23)cc1)C(=O)N1CCN(c2ccccc2)CC1)S(=O)(=O)c1cccc2cnccc12` gave a remaining activity of 96.7%.
The remaining activity of `Ic1cccc(CSc2nnc(-c3ccncc3)o2)c1` is reported as 111%.
`c1ccc(-c2[nH]ncc2-c2ccnc3ccccc23)nc1` has a remaining activity of 79.2%.
`CCN(CC)C(=O)c1ccc(Nc2nc(OCC3CCCCC3)c3[nH]cnc3n2)cc1` gave a remaining activity of 82.7%.
For `Cc1cn(-c2cc(NC(=O)c3ccc(C)c(Nc4nccc(-c5cccnc5)n4)c3)cc(C(F)(F)F)c2)cn1`, the remaining activity was 148%.
For `CCOc1nc(NC(=O)Cc2cc(OC)ccc2OC)cc(N)c1C#N`, the remaining activity was 99%.
For `O=C(NC(NC(=S)Nc1ccc(F)c([N+](=O)[O-])c1)C(Cl)(Cl)Cl)C(c1ccccc1)c1ccccc1` (stereo not shown), the remaining activity was 101%.
